# Experimental data pooled from the literature.
# Each line is one published result; not all experiments were run side by side. Several values in a cell are separate wells, animals, samples, runs or records. ± marks the error that the study gave.
# Fibroin-modulator-binding protein-1: Fibroin-modulator-binding protein-1 99-193 (Bombyx mori, UniProt Q5FBS0)
# SPT15/TOA1/TOA2/SUA7 1-240; 1-286; 1-122; 1-345: SPT15/TOA1/TOA2/SUA7 1-240; 1-286; 1-122; 1-345 (Saccharomyces cerevisiae)
# T1: KU70/KU80 KU70 1-592; KU80 1-680 (Arabidopsis thaliana); chain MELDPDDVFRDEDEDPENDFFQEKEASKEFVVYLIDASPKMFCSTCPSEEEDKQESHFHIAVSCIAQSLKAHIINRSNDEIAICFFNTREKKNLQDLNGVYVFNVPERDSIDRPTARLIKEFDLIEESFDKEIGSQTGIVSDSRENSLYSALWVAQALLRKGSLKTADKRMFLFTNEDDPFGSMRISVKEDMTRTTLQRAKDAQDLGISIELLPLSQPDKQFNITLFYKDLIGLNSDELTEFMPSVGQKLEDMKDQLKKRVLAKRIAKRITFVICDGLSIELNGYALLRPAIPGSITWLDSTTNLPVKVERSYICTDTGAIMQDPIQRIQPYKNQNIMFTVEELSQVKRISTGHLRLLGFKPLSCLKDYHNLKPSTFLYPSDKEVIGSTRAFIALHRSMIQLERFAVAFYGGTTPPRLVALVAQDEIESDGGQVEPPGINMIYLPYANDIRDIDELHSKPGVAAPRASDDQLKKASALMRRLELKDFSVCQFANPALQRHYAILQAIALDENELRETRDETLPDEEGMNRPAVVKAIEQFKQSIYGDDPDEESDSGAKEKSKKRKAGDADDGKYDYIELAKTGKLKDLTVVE; chain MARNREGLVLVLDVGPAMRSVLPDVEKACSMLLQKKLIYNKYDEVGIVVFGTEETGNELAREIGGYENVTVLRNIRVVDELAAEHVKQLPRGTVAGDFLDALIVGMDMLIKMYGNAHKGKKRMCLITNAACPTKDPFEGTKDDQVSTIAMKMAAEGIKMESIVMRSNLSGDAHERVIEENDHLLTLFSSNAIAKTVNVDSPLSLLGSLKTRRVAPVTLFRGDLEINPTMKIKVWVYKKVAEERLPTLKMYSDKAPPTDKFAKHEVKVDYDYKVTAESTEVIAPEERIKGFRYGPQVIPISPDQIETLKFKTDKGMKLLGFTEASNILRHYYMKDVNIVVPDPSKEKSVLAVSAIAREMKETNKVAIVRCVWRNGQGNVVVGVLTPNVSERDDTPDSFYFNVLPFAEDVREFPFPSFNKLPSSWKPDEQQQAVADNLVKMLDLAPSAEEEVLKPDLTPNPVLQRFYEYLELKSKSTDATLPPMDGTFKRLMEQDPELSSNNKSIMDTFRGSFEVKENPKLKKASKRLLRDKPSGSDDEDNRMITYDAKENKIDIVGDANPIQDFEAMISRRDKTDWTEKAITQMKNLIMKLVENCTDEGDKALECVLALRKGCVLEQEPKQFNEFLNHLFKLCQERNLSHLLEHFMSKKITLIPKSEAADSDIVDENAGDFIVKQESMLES
# Chain of UniProt Q64663 (whole entry, unmodified, looked up): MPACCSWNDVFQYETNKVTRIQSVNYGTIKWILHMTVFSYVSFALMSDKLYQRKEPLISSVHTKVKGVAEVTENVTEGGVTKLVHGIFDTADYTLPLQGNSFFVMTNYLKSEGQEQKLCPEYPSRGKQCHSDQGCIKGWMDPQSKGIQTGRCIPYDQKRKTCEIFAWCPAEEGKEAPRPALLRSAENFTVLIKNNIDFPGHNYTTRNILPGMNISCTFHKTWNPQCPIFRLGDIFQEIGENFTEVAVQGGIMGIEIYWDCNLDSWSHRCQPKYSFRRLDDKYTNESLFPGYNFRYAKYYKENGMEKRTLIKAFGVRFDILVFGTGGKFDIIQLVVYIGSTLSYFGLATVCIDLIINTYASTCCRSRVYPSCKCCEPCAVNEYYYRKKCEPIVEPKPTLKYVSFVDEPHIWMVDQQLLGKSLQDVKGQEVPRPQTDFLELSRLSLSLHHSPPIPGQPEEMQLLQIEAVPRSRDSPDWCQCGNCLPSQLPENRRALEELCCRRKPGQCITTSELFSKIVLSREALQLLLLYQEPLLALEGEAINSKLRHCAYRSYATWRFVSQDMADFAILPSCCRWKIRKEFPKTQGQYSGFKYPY
# Chain of UniProt P48067 (whole entry, looked up): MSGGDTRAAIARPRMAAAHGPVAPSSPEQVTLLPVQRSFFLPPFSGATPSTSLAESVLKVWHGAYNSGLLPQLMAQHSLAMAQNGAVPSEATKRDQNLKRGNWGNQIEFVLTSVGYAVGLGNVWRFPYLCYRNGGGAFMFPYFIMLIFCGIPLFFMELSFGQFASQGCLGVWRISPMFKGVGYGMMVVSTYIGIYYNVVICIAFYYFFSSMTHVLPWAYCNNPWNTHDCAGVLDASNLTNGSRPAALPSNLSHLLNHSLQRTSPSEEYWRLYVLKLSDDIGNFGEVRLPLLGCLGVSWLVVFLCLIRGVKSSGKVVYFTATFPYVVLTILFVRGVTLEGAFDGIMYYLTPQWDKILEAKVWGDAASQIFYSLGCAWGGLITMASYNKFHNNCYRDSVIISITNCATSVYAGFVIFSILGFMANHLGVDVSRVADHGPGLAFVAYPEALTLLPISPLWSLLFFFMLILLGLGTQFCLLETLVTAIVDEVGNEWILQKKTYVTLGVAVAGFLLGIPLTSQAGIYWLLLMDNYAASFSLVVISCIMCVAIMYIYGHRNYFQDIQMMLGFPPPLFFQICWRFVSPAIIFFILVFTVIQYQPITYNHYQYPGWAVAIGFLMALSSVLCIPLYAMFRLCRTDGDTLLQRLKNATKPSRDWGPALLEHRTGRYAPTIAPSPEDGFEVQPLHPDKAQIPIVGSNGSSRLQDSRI
# Chain of UniProt Q9BQ39 (whole entry, looked up): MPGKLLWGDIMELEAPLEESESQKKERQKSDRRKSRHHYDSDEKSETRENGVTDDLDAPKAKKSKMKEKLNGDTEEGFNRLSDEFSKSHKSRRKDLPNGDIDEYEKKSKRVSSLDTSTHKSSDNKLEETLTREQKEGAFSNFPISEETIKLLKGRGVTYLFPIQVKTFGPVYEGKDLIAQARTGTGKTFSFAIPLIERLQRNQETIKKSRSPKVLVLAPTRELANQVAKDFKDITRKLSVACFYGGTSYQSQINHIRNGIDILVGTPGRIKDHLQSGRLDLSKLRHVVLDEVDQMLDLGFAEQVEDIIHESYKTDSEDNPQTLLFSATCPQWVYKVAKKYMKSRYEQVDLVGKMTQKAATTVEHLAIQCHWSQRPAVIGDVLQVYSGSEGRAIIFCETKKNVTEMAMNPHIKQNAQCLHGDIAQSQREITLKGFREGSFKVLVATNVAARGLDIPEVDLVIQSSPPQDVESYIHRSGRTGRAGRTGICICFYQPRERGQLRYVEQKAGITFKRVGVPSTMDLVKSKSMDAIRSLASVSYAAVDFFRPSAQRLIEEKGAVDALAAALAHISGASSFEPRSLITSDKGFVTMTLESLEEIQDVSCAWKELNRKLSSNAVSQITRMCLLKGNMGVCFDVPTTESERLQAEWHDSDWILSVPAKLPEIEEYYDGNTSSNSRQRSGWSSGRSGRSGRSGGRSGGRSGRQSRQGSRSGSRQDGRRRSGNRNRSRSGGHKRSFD
# Chain of UniProt P13500 (whole entry, looked up): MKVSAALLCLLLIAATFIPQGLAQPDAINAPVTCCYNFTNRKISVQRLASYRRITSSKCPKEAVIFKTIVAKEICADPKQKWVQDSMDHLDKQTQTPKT
# Chain of UniProt Q8IUX4 (whole entry, looked up): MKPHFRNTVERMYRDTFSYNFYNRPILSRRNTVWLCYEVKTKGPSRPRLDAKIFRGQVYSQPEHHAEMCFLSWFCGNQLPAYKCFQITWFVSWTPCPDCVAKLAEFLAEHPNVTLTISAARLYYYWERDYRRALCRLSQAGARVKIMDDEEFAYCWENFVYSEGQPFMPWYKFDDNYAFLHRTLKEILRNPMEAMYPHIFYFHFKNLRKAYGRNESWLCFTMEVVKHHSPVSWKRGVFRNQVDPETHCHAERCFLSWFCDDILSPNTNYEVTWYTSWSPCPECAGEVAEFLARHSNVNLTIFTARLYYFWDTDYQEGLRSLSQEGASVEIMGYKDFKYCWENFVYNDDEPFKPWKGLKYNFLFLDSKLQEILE
# Chain of UniProt P01185 (whole entry, looked up): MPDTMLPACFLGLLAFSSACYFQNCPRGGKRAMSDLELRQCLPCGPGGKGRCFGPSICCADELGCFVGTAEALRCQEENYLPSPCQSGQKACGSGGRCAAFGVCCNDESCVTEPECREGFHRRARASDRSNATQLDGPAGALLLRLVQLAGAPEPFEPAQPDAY
# Chain of UniProt P55265 (whole entry, looked up): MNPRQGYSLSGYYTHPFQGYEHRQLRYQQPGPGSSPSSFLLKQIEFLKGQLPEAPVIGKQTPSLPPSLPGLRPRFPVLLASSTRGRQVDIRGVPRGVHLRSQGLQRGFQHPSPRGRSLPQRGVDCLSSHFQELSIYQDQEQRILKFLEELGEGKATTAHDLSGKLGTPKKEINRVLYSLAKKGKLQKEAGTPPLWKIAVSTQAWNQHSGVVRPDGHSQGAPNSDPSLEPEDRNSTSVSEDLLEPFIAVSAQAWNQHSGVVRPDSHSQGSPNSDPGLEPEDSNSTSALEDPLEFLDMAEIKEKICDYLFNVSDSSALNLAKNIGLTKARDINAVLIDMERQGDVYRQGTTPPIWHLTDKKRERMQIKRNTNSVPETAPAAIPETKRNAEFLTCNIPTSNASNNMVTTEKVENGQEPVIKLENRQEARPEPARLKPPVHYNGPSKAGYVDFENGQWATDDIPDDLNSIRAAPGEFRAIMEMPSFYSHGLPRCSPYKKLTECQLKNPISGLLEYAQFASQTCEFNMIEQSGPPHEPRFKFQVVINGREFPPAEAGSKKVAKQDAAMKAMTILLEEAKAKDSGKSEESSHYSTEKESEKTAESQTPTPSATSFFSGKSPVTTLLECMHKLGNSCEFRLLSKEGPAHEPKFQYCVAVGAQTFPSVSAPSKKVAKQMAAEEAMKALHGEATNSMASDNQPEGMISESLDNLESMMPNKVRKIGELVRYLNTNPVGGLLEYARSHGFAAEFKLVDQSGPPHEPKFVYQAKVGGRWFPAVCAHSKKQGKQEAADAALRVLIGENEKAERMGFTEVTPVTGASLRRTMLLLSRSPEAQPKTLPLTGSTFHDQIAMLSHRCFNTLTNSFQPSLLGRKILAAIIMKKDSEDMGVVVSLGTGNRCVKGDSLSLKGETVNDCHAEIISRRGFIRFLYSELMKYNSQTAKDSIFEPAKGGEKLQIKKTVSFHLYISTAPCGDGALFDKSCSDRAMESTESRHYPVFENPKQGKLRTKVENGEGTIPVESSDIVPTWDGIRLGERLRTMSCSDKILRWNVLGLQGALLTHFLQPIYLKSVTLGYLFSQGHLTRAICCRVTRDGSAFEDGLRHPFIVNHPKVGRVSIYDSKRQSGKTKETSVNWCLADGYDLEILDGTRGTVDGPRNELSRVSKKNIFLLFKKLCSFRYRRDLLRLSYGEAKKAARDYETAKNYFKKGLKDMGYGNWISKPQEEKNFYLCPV
# Chain of UniProt P19880 (whole entry, looked up): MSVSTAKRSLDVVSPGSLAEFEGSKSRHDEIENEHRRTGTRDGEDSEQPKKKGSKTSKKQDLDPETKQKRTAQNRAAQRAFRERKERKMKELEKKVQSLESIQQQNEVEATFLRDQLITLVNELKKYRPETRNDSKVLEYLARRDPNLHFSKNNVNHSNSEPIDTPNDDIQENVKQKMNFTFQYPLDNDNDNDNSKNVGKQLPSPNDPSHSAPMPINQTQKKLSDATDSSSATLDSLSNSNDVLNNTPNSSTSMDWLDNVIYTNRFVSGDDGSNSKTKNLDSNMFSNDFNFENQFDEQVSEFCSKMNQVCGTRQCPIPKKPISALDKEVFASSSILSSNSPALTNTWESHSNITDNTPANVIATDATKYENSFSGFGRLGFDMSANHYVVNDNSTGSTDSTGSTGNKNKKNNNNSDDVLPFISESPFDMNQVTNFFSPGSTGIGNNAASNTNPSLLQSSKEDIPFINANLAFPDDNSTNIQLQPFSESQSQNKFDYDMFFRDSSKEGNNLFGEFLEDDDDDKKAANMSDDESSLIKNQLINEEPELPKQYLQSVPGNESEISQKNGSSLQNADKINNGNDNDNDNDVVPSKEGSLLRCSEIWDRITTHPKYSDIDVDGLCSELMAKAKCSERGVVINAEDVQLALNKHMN
# Chain of UniProt P32787 (whole entry, unmodified, looked up): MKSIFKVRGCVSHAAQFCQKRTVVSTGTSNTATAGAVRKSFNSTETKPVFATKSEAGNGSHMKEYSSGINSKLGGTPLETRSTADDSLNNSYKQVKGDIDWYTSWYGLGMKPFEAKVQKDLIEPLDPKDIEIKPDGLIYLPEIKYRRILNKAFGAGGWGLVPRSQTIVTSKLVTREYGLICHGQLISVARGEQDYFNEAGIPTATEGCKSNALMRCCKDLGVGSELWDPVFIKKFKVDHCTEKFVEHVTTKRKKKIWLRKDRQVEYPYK
Molecule,target or system,assay,system,setting,scale,endpoint,result
GGGTGAGGGAGTGGGTCAGGG (G-quadruplex DNA; G-quadruplex),"CCL2 24-99 (Homo sapiens, UniProt P13500)",BLI,folded DNA,,,Kd,11.7 nM
ATTTATATTATTTATTCATATTTATATTTA (ssDNA),"APOBEC3F 1-185 (Homo sapiens, UniProt Q8IUX4)",EMSA,single-stranded DNA,,,Kd,146 ± 4.7 nM
Peginesatide,UT7/EPO,"tyrosine phosphorylation, LC-MS/MS phosphoproteomics, trypsin, item: STAT3 tyrosine 705",,"10 nM, 15 min, added: 10 U/mL EPO",reference: vehicle,phosphorylation level,5.6 fold
GSGAGPETLV,human SCRIB PDZ3-4 tandem (MBP fusion),automated holdup,"peptide, crude extract","concentration not given, uncorrected, unit not given","reference: biotin control resin, higher = stronger binding",binding intensity,0.526
"DNA 1 CACTGGCCGTCTTACGGTCGCTCTGCTCGACG / DNA 2 CGACCGTAAGACGGCCAGTG (dsDNA; 20 bp, 3' 12 nt overhang)","RECQL 63-592 F322A (Bos taurus, UniProt A0JN36)",fluorescence anisotropy,double-stranded DNA,added: Mg2+ 3 mM,,Kd,43.6 ± 6.4 nM
ACCTAGATAGAGCCA (dsDNA; blunt),"T1, KU70/KU80 KU70 1-592; KU80 1-680 (Arabidopsis thaliana)",PIFE stopped-flow,"double-stranded DNA, one strand shown",,,Kd,180 nM
GGCCGGCCGGCC (dsDNA),Fibroin-modulator-binding protein-1,ITC,"double-stranded DNA, one strand shown",,,Kd,2210 ± 349 nM
AAAGAAAGAAAGAAAGAAAGAAAG (ssRNA),"CGAS 161-522 K394E (Homo sapiens, UniProt Q8N884)",fluorescence anisotropy,RNA,,,Kd,537 ± 54 nM
TACTTCAGTTGTGAAGTGTAACAAGGTCTTATAATTCAAGTCAATCGGTCC (dsDNA; 5'-amino-C6 primer),SPT15/TOA1/TOA2/SUA7 1-240; 1-286; 1-122; 1-345,array,"double-stranded DNA, one strand shown",TBP:TFIIA:TFIIB ternary complex,,Kd,3.68 ± 0.7 nM
GATCGATCGATC (dsDNA),Fibroin-modulator-binding protein-1,ITC,"double-stranded DNA, one strand shown",,,Kd,5280 ± 605 nM
GTGTGGTTAATATGGTGTGGTTAATATGGTGTGGTTAATATGGTGTGGTTAATATG (dsDNA),"RNJ 604-911 (Arabidopsis thaliana, UniProt Q84W56)",EMSA,"double-stranded DNA, one strand shown",,,Kd,298 nM
TTGATAAGAGGTCATTTTTGCGGATGGCTTAGAGCTTAATTGCTGAATCTGGTGCTGTAGCTCAACATGTTTTAAATATGCAA (ssDNA),"MGM101 23-269 Y139A (Saccharomyces cerevisiae, UniProt P32787)",fluorescence polarization,single-stranded DNA,,,Kd,1700 ± 130 nM
CTCAGGAATTCCTATACAGTAATGTGGAGCTCAGTTCAAGTCAATCGGTCC (dsDNA; 5'-amino-C6 primer),SPT15/TOA1/TOA2/SUA7 1-240; 1-286; 1-122; 1-345,array,"double-stranded DNA, one strand shown",TBP:TFIIA:TFIIB ternary complex,,Kd,2.26 ± 0.56 nM
CGCCAATTATGGAATTATGTAATTATTCAATTATTGAATTATTTAATTCACCAATCTCCGGCGGTATGAC (dsDNA),"YAP1 full length assumed (Saccharomyces cerevisiae, UniProt P19880)",MITOMI,"double-stranded DNA, one strand shown",not purified,,Kd,2600 ± 200 nM
CTCAGGAATTCCTATAGAGTAATGTGGAGCTCAGTTCAAGTCAATCGGTCC (dsDNA; 5'-amino-C6 primer),SPT15/TOA1/TOA2/SUA7 1-240; 1-286; 1-122; 1-345,array,"double-stranded DNA, one strand shown",TBP:TFIIA:TFIIB ternary complex,,Kd,8.5 ± 4.9 nM
RNA 1 UAAGACACGAUGCGAUAAAAUCUG / RNA 2 CAGAUUUUAUCGCAUCGUGUCUUA (dsRNA),"CGAS 161-522 (Homo sapiens, UniProt Q8N884)",fluorescence anisotropy,double-stranded RNA,,,Kd,356 ± 61 nM
TCGATCGATCGA (dsDNA),Fibroin-modulator-binding protein-1,ITC,"double-stranded DNA, one strand shown",,,Kd,2670 ± 128 nM
"FNA / CGLSGLGVA-NH2 ([18F]FNA-labelled, C-amide)",,ex vivo gamma counting,"peptide, glioblastoma mouse model, muscle","60 min post injection, added: 500-fold excess CooP blocking",,tissue uptake,0.2 %ID/g
"DNA 1 TGGGTGGGTAGGGTGGGTAGGGGAGGAT / DNA 2 ATCCTCCCCTA (DNA; intramolecular parallel G4, 5' overhang, 11-bp duplex)","REV1 330-833 N373S (Homo sapiens, UniProt Q9UBZ9)",FP,folded DNA,KCl 100 mM,,Kd,1.8 ± 0.6 nM
CGCGCG (XNA; fully LNA blunt duplex),"ADAR 133-199 (Homo sapiens, UniProt P55265)",ITC,"modified nucleic acid, one strand shown",,,Kd,4240 ± 660 nM
AGATAGATAGAT (dsDNA),Fibroin-modulator-binding protein-1,ITC,"double-stranded DNA, one strand shown",,,Kd,864 ± 88.6 nM
ATGATGTCCTTTTCCAAAAACGCCACTCCTAGAGCTCAAGTCAATCGGTCC (dsDNA; 5'-amino-C6 primer),SPT15/TOA1/TOA2/SUA7 1-240; 1-286; 1-122; 1-345,array,"double-stranded DNA, one strand shown",TBP:TFIIA:TFIIB ternary complex,,Kd,5.7 ± 2.2 nM
CTCTCGGGACGACGTCCAAGTAGTACGTTTAATTAGGATTTCCGAATTATTGGCATGCGTCGTCCC (DNA; stem-loop),"arginine vasopressin 20-28 (Homo sapiens, UniProt P01185)",bulk solution assay,folded DNA,,,Kd,543 nM
TATTATTGGCACTTCTGTATAACTGGCTTTCATTCTCAAGTCAATCGGTCC (dsDNA; 5'-amino-C6 primer),SPT15/TOA1/TOA2/SUA7 1-240; 1-286; 1-122; 1-345,array,"double-stranded DNA, one strand shown",TBP:TFIIA:TFIIB ternary complex,,Kd,7.86 ± 3.76 nM
BzATP,"P2X purinoceptor 7 (P2rx7, Rattus norvegicus, UniProt Q64663, I214A/R125A)","ion current, agonist, two-electrode voltage clamp",Xenopus laevis oocytes,1.23 µM,reference: highest concentration response,normalized current,0
colistin,Pseudomonas aeruginosa,broth microdilution,clinical isolate RKI-No_321/16,,,MIC,1 mg/L
ATCAATCAATCA (dsDNA),Fibroin-modulator-binding protein-1,ITC,"double-stranded DNA, one strand shown",,,Kd,2620 ± 582 nM
TCCTGAAGGGGAGCCTATAAAAGGTCCTATCGTCGTCAAGTCAATCGGTCC (dsDNA; 5'-amino-C6 primer),SPT15/TOA1/TOA2/SUA7 1-240; 1-286; 1-122; 1-345,array,"double-stranded DNA, one strand shown",TBP:TFIIA:TFIIB ternary complex,,Kd,2.47 ± 0.3 nM
ATTCATTCATTC (dsDNA),Fibroin-modulator-binding protein-1,ITC,"double-stranded DNA, one strand shown",,,Kd,655 ± 80.3 nM
GAATTCCTATGAAGTAATGTGGAGCTCCGTTCGTCTCAAGTCAATCGGTCC (dsDNA; 5'-amino-C6 primer),SPT15/TOA1/TOA2/SUA7 1-240; 1-286; 1-122; 1-345,array,"double-stranded DNA, one strand shown",TBP:TFIIA:TFIIB ternary complex,,Kd,2.25 ± 0.36 nM
11-deoxycorticosterone,CYP11B2 (human),"substrate binding, stopped-flow global kinetic fitting",purified enzyme,"3-state induced fit model, added: no adrenodoxin",,rate constant k-2,1.21 ± 0.0595 s⁻¹
methyl-β-cyclodextrin,"Sodium- and chloride-dependent glycine transporter 1 (SLC6A9, Homo sapiens, UniProt P48067)","transport activity, [3H]glycine uptake",,"3.5 mg/mL, 1 min, added: glycine 150 µM",higher = more transport,glycine uptake rate,43.9 a.u. and 43.4 a.u. and 43.2 a.u. and 38.2 a.u. and 21.1 a.u.
GSGAGKETYY,human MAGI1-2/6 PDZ construct (MBP fusion),surface plasmon resonance,peptide,concentration not given,higher = stronger binding,normalised SPR binding response,0 normalised RU
CATACATACATA (dsDNA),Fibroin-modulator-binding protein-1,ITC,"double-stranded DNA, one strand shown",,,Kd,970 ± 93.3 nM
GGAAGTGACGTACGTCGTGCACACGTGGTCCGGCGTCAAGTCAATCGGTCC (dsDNA; 5'-amino-C6 primer),SPT15/TOA1/TOA2/SUA7 1-240; 1-286; 1-122; 1-345,array,"double-stranded DNA, one strand shown",TBP:TFIIA:TFIIB ternary complex,,Kd,2.25 ± 0.64 nM
AACAAACAAACA (dsDNA),Fibroin-modulator-binding protein-1,ITC,"double-stranded DNA, one strand shown",,,Kd,4930 ± 362 nM
UUGGUAGUCACCCCAAAUUGUUAUU (ssRNA),"DDX50 full length assumed (Homo sapiens, UniProt Q9BQ39)",MST,RNA,added: glucose 350 µM,,Kd,5390 ± 2640 nM

# Excerpt of the above:
Molecule,target or system,assay,system,setting,scale,endpoint,result
ATTTATATTATTTATTCATATTTATATTTA (ssDNA),"APOBEC3F 1-185 (Homo sapiens, UniProt Q8IUX4)",EMSA,single-stranded DNA,,,Kd,146 ± 4.7 nM
Peginesatide,UT7/EPO,"tyrosine phosphorylation, LC-MS/MS phosphoproteomics, trypsin, item: STAT3 tyrosine 705",,"10 nM, 15 min, added: 10 U/mL EPO",reference: vehicle,phosphorylation level,5.6 fold
GSGAGPETLV,human SCRIB PDZ3-4 tandem (MBP fusion),automated holdup,"peptide, crude extract","concentration not given, uncorrected, unit not given","reference: biotin control resin, higher = stronger binding",binding intensity,0.526
"DNA 1 CACTGGCCGTCTTACGGTCGCTCTGCTCGACG / DNA 2 CGACCGTAAGACGGCCAGTG (dsDNA; 20 bp, 3' 12 nt overhang)","RECQL 63-592 F322A (Bos taurus, UniProt A0JN36)",fluorescence anisotropy,double-stranded DNA,added: Mg2+ 3 mM,,Kd,43.6 ± 6.4 nM
ACCTAGATAGAGCCA (dsDNA; blunt),"T1, KU70/KU80 KU70 1-592; KU80 1-680 (Arabidopsis thaliana)",PIFE stopped-flow,"double-stranded DNA, one strand shown",,,Kd,180 nM
